Measurements gathered from unrelated publications.
Parts stem from different laboratories: compare values within a part only. Substitutions count along the parent as printed.

Study 1
Target: RING finger protein unkempt homolog, zinc fingers 1-6, GST-SBP tag (UNK, Homo sapiens, UniProt Q9C0B0, residues 30-357)
UniProt Q9C0B0, sequence (30-357, looked up): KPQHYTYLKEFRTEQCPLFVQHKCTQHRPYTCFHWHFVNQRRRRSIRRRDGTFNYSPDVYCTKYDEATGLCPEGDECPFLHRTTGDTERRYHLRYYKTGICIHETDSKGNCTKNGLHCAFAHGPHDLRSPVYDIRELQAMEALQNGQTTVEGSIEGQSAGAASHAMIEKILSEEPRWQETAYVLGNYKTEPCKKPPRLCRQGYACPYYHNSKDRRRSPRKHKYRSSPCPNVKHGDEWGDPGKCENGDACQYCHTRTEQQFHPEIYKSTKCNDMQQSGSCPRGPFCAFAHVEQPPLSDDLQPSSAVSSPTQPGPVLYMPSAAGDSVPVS
Technique: RNA Bind-n-Seq
Form: RNA
Matrix: in vitro
Tested at: not given
Setting: RNA with constant flanks, ends assumed
Reference: input RNA pool
Reading: higher = stronger binding
Quantity: bound/input enrichment
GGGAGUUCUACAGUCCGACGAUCUGUGGCAGUGCCCCGUGUUUGCUGUGCCGAUGCUGCCCCAGUGGGAACAACUCCACUGUGACCCGAUUGAUCUACGCACUUUUCUUGCUCGUCGGAGUAUGUGUAGCUUGUGUAAUGUUACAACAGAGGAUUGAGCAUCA: 0.272 ratio
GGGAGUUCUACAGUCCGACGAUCACAAAAAACAAACGACCAUUUCUCUAAGCCAAGUUUCUUUUAGAGACAUUUUAACUUAUUCCGCUGAACUCUAGAUUUUUUGGUAAACUAUCAAUCUGUAUAUGUUGUAAUUAAGUGUCUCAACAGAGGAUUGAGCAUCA: 0.91 ratio
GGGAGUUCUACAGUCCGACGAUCGGCCAGGAGCGAUUUCACACCAUCACAACCUCCUACUACAGAGGAGCAAUGGGCAUCAUGCCCGUGUAUGACAUCACCAACGGUAAAAGCUUUGAGAACAUCAGCAAGUGGCUUAGAAACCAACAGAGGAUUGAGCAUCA: 0.299 ratio
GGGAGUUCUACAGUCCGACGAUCAGUCUUAAAAGACCCUGGGAAGAUGAUCCUCCAAAUGUACAUAUUAUUGGAAAUCUGCCUUUCCGUGUUUCAACUCCACUGAUUAUCAAGUGGCUUGAAAAUAUUUCCUGUAGAGAUGGACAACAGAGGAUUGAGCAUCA: 0.194 ratio
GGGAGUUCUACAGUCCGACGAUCGCUCUGGAUAUAGAAAUCGCUGCGUACAGAAAACUCCUGGAGGGUGAAGAGACUAGAUUCCGCACAUUUGCAGGAAGCAUCACUGGGCCACUGUAUACACACCGACCCCCAAUCACAAUACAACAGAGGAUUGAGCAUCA: 0.295 ratio
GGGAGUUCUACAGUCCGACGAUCGAAUGUGGCUGGAAGGAUCAGUUGAAGGCACACUGUAAAGAGGUAAUUAAAGAAAAAGGACCCGAACACGUUACUGUUGAUGACUUGGUGGCUGAAAUCACUCCAAAAGGCAGAGCCCUGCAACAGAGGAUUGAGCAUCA: 0.195 ratio
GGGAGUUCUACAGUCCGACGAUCGAGUUCCCAGAGAAUGUACUUUUGCUUUGUCAUACUUAUCCUUGUUAUAUUUAAACAAUCCCGUACCCAAAAAAUGUGGGCCGUACUUUCUAGUGAGUCUAAGGAAAAGUCAUCUUUGAUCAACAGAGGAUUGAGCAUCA: 0.399 ratio
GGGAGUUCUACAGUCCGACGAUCAUUUGUUUUGUGAAUGACCCACGGCCCCAGCACAAGUACAAUAAAUUGUACACAGCCGACUACUUGAGCAAUAUGGUUGGAGGGAGAAAAACGCUGUAUAACAACCAGCCCAUUGACUUCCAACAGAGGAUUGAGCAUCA: 0.122 ratio
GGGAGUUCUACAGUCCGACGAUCAUAAAGACUGAGCACUACAAAACAGAUCUUCAUUCUCCAAGAGGACAAGCGUCGGACCGUAUAAACCCCAUGUCUAGGGUGCUAAGCCCCCUGAGUCCUCAAAUCAGCCCUUGCAGCUCCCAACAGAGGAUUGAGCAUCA: 0.329 ratio
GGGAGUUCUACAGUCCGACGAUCGAGAACCAGGAACUCGAGGCUCCUGGAGGAAUUGCCACACCGCCAGUGUACGGUCAGCUUCCCGCUUUGUACUUGCUCCAGAACGACAUGAAUAAUGCAAGAUAUCUGUGGAAGAGGAUACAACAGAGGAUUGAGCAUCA: 0.177 ratio
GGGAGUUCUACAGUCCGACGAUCGAAGAAUACUCCUUUGGUAGAUCAAAGAUAUUCAUCCGAAACCCAAGAACAUUAUUCAAAUCCGAAGACCUGAGGAAGCAACGCCUGGAGGACUUGGCCACUCUCAUUCAGAAGAUAUAUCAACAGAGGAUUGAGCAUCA: 0.31 ratio

Study 2
Target: ABI1, truncated, D143A, DHFR fusion (Arabidopsis thaliana)
Technique: DHFR PCA, deep sequencing
Matrix: yeast
Setting: methotrexate growth selection, single substitutions
Together with: (+)-ABA 0 µM
Reference: wild-type fitted maximum
Reading: higher = stronger binding
Quantity: relative binding score
Starting sequence: PYL1, truncated, DHFR fusion (Arabidopsis thaliana); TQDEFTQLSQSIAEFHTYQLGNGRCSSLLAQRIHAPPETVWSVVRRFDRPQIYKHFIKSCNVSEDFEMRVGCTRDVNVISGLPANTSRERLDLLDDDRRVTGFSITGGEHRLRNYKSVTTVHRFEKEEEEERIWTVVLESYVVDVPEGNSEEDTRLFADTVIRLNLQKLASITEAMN; partner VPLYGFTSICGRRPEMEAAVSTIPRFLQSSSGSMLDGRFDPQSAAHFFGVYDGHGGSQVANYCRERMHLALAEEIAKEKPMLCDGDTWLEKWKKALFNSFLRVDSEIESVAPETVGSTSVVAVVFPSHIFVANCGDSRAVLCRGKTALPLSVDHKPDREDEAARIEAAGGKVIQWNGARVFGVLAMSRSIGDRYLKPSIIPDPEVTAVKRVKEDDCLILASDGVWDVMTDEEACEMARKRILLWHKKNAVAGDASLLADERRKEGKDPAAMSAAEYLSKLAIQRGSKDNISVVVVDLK
S9L: 31.5%
L138K: -0.955%
Q19F: 2.66%
T39Y: 7.86%
L28S: 2.92%
Y53N: -5.52%
R69S: 14%
E131P: 54.4%
V142L: -5.68%
E128L: 7%
R32D: -0.986%
C72K: 1.23%
E147P: 31.2%
L112K: 1.55%
R46L: 0.344%
F47E: -1.92%
L169M: -1.43%
W41K: -1.94%
R88D: 2.33%

Study 3
Target: RNA binding protein fox-1 homolog 2, RRM domain, GST-SBP tag (RBFOX2, Homo sapiens, UniProt O43251-10, residues 100-194)
Technique: RNA Bind-n-Seq
Form: RNA
Matrix: in vitro
Tested at: 365 nM
Setting: natural RNA segment, single round, ends assumed
Reference: no-protein control
Reading: higher = stronger binding
Quantity: RBNS enrichment (R)
Construct (chain): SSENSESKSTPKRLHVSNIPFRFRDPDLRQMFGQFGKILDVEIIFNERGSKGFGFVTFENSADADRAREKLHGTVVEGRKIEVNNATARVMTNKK
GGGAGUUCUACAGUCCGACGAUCCCGACUGAAGCCAGUGUCAGGGCACCACAUACUCCUGGGGCCAGUCUACAGGAAAGAGAUGUUCUGCAAACAAGGGUGGAUGCCUGCAGUAGAGGUCAGAGCUGGUUACCUGGAAUUCUCGGGUGCCAA: 1.05
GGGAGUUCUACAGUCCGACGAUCCUUCUCCAUGUAGUUCCUCUCCUACAAGCCAGGUGGAUUCUGGUCCUAACUAAAGAGAUGGGAGUUCACCUGAGGGCAAGAAGUACCCAGGAUGCCCAAACAGCCGCACAUGGAAUUCUCGGGUGCCAA: 0.291
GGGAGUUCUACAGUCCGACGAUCCCAAUCUGCCAUUCAUGGUGUUAUAAACUCGGAAUUCCAUAUGUAAUAGGAUGCAAGUCUAAGCGUUUCAUGUGGACAUAAAUGUAUCUAAAUAAAACUUCCCCUAGCACUGGAAUUCUCGGGUGCCAA: 0.205
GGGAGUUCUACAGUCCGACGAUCAAAAUGUGAGGAAUUACCUGUCAAAUUAGAUUGAGCUCAGAGUAAAUAGAUGAGCACAUUUAUAACUCUAAAUUAGACUUUCUAUCAAAUGGGACCAAACAUAUGGAAGGUGGAAUUCUCGGGUGCCAA: 0.26
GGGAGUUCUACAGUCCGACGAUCGGGCGGCUGAGAGGCCGCCACUGAGCAUCUCUAUCUGUCAUUCCUUUAGCUAUUUAGGGACCAAAGGACCAAACUUUUUAUUGCAGAUGUGUAGCUCUAUGUCAAAUAGAUGGAAUUCUCGGGUGCCAA: 0.294
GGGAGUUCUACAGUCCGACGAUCUGUAAAAAUAAAAAAAAAAUAUUUUUAGCAGAACAGGACUUACAGGGUCAUUGUCCCCACAAUGUGCCAGUCGACUAUUUGCACUUACCUUGUCCUAUAUAUCCGUACGGUGGAAUUCUCGGGUGCCAA: 0.381
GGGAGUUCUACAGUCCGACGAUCCACAGCAUUGAGGCCAGCCUGACUGAAGGAUGAUGUGAGGCUGUUUGUCACUUCUGUUCUUUUCCCCGUGGUUGAGACUGCCCACAGGAAAAGGGCUGGCUGCUCUGACAUGGAAUUCUCGGGUGCCAA: 2.86
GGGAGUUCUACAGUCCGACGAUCUAGAUAAAAUAAUCUUUAUUAUAAUGACCAGUUUUGUGCCACAUUGUUGGUGGCGAUCGACCAGAUGUGUUCGUCUGCACAGCCGCGAGGCAACACUGUUCCGUUUGCACUGGAAUUCUCGGGUGCCAA: 0.395
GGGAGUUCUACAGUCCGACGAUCGCUUUCAAAUCAUUGGAAGGGGAAAAGGAUGUCUUAGGAUUAUUUUCUUUCUUGUAGUAGUUGAGACAGAGCUCUUAUUUACUGUAAUGCUAAAUGAAACAGUGGCUUAAUGGAAUUCUCGGGUGCCAA: 0.398
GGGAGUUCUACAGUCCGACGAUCCAUGCCCUACUUGGAAAGAUCUAAGAUCUGAAUCUUAUCCUUUGCCAUCUUCUGUUACCAUAUGGUGUUGAAUGCAAGUUUAAUUACCAUGGAGAUUGUUUUACAAACUUUGGAAUUCUCGGGUGCCAA: 0.345
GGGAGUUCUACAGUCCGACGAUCCUGUAUUGUAAUAUUAUUUGUUGAAUGUAGUAAUUAGGUAUUUAUGAAUAUAUUGCUGUAAUUUCUGACAUCCCGAAAAAUAAAAUCUUCCUAAAUCAUGUUAAGACGAAUGGAAUUCUCGGGUGCCAA: 0.449
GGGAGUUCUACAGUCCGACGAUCUGCCUGCGCCCGCUCACCAAGGGGUCCUUCCAGGAGCGCGCCGGCAAGCCCUACUGCCAGCCCUGCUUCCUGAAGCUCUUCGGCUGACAGCCCGCUCGGCUCGCCCUCUCUGGAAUUCUCGGGUGCCAA: 0.224

Study 4
Target: CCND1, cyclin fold, Cln2 fusion (human)
Technique: yeast growth competition, sequencing
Matrix: yeast
Setting: strong parent motif
Reference: not given
Reading: higher = stronger binding
Quantity: normalised enrichment score
Starting sequence: PKN2 docking peptide (human); VSAVRKLDFSDTM; partner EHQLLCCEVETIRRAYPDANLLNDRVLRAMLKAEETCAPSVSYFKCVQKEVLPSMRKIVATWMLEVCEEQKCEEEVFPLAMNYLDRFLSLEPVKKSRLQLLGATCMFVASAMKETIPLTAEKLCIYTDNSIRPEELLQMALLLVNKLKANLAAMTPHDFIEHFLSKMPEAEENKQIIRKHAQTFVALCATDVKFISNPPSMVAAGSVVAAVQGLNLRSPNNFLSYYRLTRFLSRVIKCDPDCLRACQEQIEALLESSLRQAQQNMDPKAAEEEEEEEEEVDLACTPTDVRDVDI
V4W: 0.414
L7R: -0.285
S10D: 5.17
F9M: 0.973
S2Y: 3.03
V4G: 1.53
A3H: 0.835
D8K: 2.04
S2R: 5.08
T12I: 5.4
D11Y: 4.49
T12K: 5.8
F9C: 0.054
L7H: 0.1
V4M: 4.66
V4T: 2.35
K6T: 2.44
S10R: 4.27
D8A: 1.61
K6D: 0.565
D8Y: 2.12
V4A: 5.32
L7S: -0.0329

Study 5
Target: Histone acetyltransferase KAT6A, both winged helices, GST fusion (KAT6A, Homo sapiens, UniProt Q92794, residues 1-181)
Technique: protein binding microarray
Form: double-stranded DNA, one strand shown
Matrix: in vitro
Tested at: not given
Setting: 8-mer, flanks averaged, mean of 2 arrays, mostly near background
Reference: not given
Reading: higher = stronger binding
Quantity: E-score
Residues (chain): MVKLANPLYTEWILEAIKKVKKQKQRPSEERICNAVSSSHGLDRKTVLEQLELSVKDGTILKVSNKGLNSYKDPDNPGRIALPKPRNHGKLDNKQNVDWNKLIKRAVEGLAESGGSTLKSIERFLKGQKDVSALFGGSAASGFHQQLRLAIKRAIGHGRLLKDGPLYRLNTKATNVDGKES
ACAGCAAC: -0.0388
GGTTACTA: 0.00949
ACACTGCT: -0.236
GGCACGAC: -0.0758
GGAATGTA: -0.0134
AGTAGAGC: -0.189
GCTGCTAA: -0.0949
ATGGTTGG: 0.00616
CCATTTTA: 0.0522
AGCGAAGG: 0.0196
CGGGAACG: 0.343
TCACGTAA: -0.0946
GCGATATA: 0.0675
GGAAGTGA: 0.0663
GGTCGAGA: -0.0308
CATGGACC: -0.00639
GATTTAAC: 0.0955
CGCCACAC: 0.0767
CGGATAGA: 0.213
AACGACGA: -0.0999
ACGTGCAG: -0.122
CAAGCGCA: 0.193
ATTTATCA: 0.00839
ACCCGAGT: 0.1
AGTAGGAT: -0.239
